Assay results collected from several papers.
Each line is one published result; not all experiments were run side by side.
Target: Serine/threonine-protein kinase PAK 2 (PAK2, Homo sapiens, UniProt Q13177)

O=C=[N][Ru-4]123([n]4c5ccc(O)cc5c5c6c(c7cc(F)c[n+]1c7c54)C(=O)NC6=O)[S+]1CC[S+]2CC[S+]3CC1 (stereo not drawn)
remaining activity (enzyme activity; 100 nM, human enzyme, together with: 10 µM ATP; reference: untreated): 91%

CNC(=O)C1CCN(c2cc(C)c(F)cc2NC(=O)c2ccc(-c3cc(O)ccc3C)c(C)c2)CC1
remaining binding (binding, competition with immobilised ligand; 1 µM): 52%

C=CC(=O)N1Cc2nc(-c3cc(-c4cc(Cl)cnc4Cl)c(F)cc3F)n(-c3ccncn3)c2C1
inhibition (cell-free assay, inhibitor; 1 µM): -0.8%

C=CC(=O)N1CCc2ccc(-n3c(=O)ccc4cnc5ccc(-c6cnn(C)c6)cc5c43)cc21
remaining binding (KINOMEscan; 1 µM; reference: DMSO control): 100%

C=CC(=O)Nc1cccc(-c2cnc3[nH]cc(C(=O)NC(C)(C)C)c3n2)c1
inhibition (enzyme activity, inhibitor; 0.1 µM): 3%

COc1cc(Nc2nc(C)cc(-c3cnn4nc(OC)ccc34)n2)cc(C(F)(F)F)c1
remaining activity (inhibitor; 1 µM; reference: control): 75%

Cc1cccc(O[C@H]2CCC[C@@H](C(C)CNCc3ccncc3)C2)c1 (relative stereo)
inhibition (enzyme activity, inhibitor; 1 µM): 2%

Nc1ncc(-c2cc(-c3cnn(CC(F)(F)F)c3)ncc2F)nc1C(=O)NC1CNCC(F)C1 (stereo not drawn)
remaining activity (enzyme activity; 1 µM; reference: DMSO control): 96.4%

COc1ccc(C(=O)/C=C/c2ccccc2-c2c[nH]c3ccc(C#N)cc23)c(O)c1
inhibition (enzyme activity, inhibitor; 20 µM): 0%

COc1ccc(NC(=O)Nc2ccc3c(c2)C(=O)N(C(C)CO)CC(C)C(CN(C)Cc2ccc4c(c2)OCO4)O3)cc1 (stereo not drawn)
remaining activity (kinase activity, KinaseProfiler; 0.03 µM, species human; reference: control): 90%

O=C(O)CCC(=O)c1cccc(NS(=O)(=O)c2c[nH]c3ncccc23)c1
remaining activity (kinase activity, radiometric; 10 µM): 97%

COc1c(Cl)cccc1Nc1c(-c2ccncc2C#C[C@@]2(C)CCCN2C(=O)/C=C/CN(C)C)[nH]c2c1C(=O)NCC2
remaining binding (cell-free assay, competition with immobilised ligand; 3 µM): 85%

COc1cc(-n2cc3cc(F)cc(C(N)=O)c3n2)cc(Cl)c1C1CC(O)(CCO)Cc2ccccc21 (stereo not drawn)
inhibition (enzyme activity, inhibitor; 10 µM): 0.85%

CN1CCN(Cc2ccc(NC(=O)c3cccc(C#Cc4cnc(N)c5ncccc45)c3)cc2C(F)(F)F)CC1
remaining binding (cell-free assay, competition with immobilised ligand; 50 nM): 86%

CC(=O)N1c2ccc(-c3ccc(CNC(=O)c4cn5cc(-c6cnc(N)nc6)nc(N6CCOCC6)c5n4)cc3)cc2CC[C@@H]1C
remaining binding (KINOMEscan; 10 µM): 100%

A few entries again:
CNC(=O)C1CCN(c2cc(C)c(F)cc2NC(=O)c2ccc(-c3cc(O)ccc3C)c(C)c2)CC1
remaining binding (binding, competition with immobilised ligand; 1 µM): 52%
